Published values of several laboratories.
Every numbered part comes from another study and shows a few of its results, in no order. Changes are numbered by the printed parent chain.

Study 1
Target: CCNB2, cyclin fold, Cln2 fusion (human)
Method: yeast growth competition, sequencing
Sample: yeast
Notes: weak parent motif
Relative to: not given
Direction: higher = stronger binding
Quantity: normalised enrichment score
Parent: RB1 docking peptide (human); PKPLKKLRFDIEG; partner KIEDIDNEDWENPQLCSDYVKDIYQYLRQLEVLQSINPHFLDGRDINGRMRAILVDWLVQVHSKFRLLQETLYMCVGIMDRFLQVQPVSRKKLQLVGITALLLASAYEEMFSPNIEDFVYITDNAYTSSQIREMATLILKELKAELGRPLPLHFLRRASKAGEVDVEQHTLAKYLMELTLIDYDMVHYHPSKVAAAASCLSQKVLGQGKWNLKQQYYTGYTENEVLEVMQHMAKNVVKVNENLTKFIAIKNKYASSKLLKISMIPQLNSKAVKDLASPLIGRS
QKPLKKLRFDIEG [P1Q]: 0.637
PKPLKKRRFDIEG [L7R]: 0.669
PKPLPKLRFDIEG [K5P]: 0.226
PIPLKKLRFDIEG [K2I]: 0.597
PKELKKLRFDIEG [P3E]: 0.403

Study 2
Target: Sal-like protein 4, full length isoform A (SALL4, Homo sapiens, UniProt Q9UJQ4, residues 1-1053)
Chain of UniProt Q9UJQ4 (whole entry, looked up): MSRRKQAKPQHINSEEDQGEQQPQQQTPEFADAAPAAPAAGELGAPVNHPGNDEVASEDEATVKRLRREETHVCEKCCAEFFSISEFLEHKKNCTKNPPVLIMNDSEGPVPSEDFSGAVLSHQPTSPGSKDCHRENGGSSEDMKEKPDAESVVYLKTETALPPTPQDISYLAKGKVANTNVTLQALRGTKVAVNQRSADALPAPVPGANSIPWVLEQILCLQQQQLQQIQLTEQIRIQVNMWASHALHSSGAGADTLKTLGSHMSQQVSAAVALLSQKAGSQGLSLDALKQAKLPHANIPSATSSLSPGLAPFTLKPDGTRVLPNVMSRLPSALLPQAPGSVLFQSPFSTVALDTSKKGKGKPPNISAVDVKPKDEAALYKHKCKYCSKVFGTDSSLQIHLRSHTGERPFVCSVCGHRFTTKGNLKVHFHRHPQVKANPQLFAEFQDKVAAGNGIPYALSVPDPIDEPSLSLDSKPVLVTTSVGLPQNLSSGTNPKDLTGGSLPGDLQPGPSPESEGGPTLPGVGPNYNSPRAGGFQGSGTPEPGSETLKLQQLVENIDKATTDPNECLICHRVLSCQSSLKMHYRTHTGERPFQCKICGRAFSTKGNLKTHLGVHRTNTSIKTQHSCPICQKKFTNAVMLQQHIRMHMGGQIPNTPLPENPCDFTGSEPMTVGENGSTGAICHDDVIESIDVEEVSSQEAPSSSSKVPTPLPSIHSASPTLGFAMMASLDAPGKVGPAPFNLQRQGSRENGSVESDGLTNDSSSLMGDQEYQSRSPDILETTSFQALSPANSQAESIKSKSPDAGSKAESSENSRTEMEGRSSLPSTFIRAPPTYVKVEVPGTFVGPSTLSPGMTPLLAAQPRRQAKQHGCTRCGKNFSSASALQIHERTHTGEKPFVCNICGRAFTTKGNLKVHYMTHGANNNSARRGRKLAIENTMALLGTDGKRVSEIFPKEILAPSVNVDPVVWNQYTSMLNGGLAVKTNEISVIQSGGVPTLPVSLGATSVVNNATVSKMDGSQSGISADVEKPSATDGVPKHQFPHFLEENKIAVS
Method: universal PBM
Form: double-stranded DNA, one strand shown
Sample: in vitro
Tested at: 600 nM
Notes: 8-mer, flanks averaged, mean of replicates
Direction: higher = stronger binding
Quantity: E-score
CACTTGGG: -0.102
CTAAGACC: -0.186
ACCCAGAC: -0.187
AAGTACTG: 0.0643
ATCATTAA: 0.337
GTAATCTA: 0.276
AGTCGTGG: -0.104
AATCGGCC: -0.236
ATTTTCCA: 0.294
TCCTAGAA: 0.065
AAGTTCCA: 0.0282

Study 3
Target: RNA binding protein fox-1 homolog 2, RRM domain, GST-SBP tag (RBFOX2, Homo sapiens, UniProt O43251-10, residues 100-194)
Method: RNA Bind-n-Seq
Form: RNA
Sample: in vitro
Tested at: 365 nM
Notes: natural RNA segment, single round, ends assumed
Relative to: no-protein control
Direction: higher = stronger binding
Quantity: RBNS enrichment (R)
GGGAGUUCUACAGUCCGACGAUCCACCUGAGAAAGAGCUGAUUUUGUAUUUCAGGUUUGAAAAGAAAUAACUGAACAUAUUUUUUAGGCAAGUCAGAAAGAGAACAUGGUCACCCAAAAGCAACUGUAACUCAUGGAAUUCUCGGGUGCCAA: 1.21
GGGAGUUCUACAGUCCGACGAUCGAUAAUUUGCAUACUCUAUUGUAUUAUUUGGAGUUAAAUCCUCACUUUGGGGGAGGGGGGAGCAAAGCCAAGCAAACCAAUGAUGAUCCUCUAUUUUGUGAUGACUCUGCUGGAAUUCUCGGGUGCCAA: 0.903
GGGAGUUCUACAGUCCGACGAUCCUGGUACCGUGGAGCUUUAUUUUGCUAUUGAACGCCAAGCUGAAUGUGAGUGACAGGGAACAAUCCCAGCUCUGGGCUCUGCAGAAACUCACAAACUAAACUCCUUUCUGUGGAAUUCUCGGGUGCCAA: 0.584
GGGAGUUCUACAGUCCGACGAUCCCCAGGCCCAAAGGAGACAACUAACUAAAGUAGUGAGAUAGAUUCUAAGGGCAAACAUUUUUCCAAGUCUUGCCAUAUUUCAAGCAAAGAGGUGCCCAGGCCUGAGGUACUGGAAUUCUCGGGUGCCAA: 0.503
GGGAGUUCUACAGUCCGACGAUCUGCUGUAAGAUUGUAUUCUGUAUAUAUGUUUUCAUGUAAAUAAAUGAAAAUCUAUAUCAGAGUUAUAUUUUAAUUUUUAUUCUAAAUGAAAAAAACCCUUUUUACUUCAAUGGAAUUCUCGGGUGCCAA: 1.49
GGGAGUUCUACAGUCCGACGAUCUAUAAGAGGUGCUCACAGAAAGAAUAAGGGAAACUUCCCUGAUACCUUAAUGCAAAAUCAAAAUUAUAAAAUAAAAUCAUUGACAUUGAUGGGUUUUUUUGCAUAUAAGCUGGAAUUCUCGGGUGCCAA: 0.474
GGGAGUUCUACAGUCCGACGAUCUUAUACCUGGACAAUUUAGAUGUUUAUCAAAGGUCUUUUAUGGGGAAGAAAGCAAAUGUGUAAAACAGUAGACGUGUGACGUUUAUGAGUAAUGCUGGCUCUGAACAAACUGGAAUUCUCGGGUGCCAA: 0.505
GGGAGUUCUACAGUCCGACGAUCAAUUAGAGUCAUCGCACCAGGGUGCAAUUUUAAUUUAAAAACUUAAAAGACUUUUCUAACUUCCCUAGUUUGUGUUUUUGUUUUUGCUUUGGUGGGGAAGGUCAGUGGGGUGGAAUUCUCGGGUGCCAA: 4.36

Study 4
Molecule: PhoQ, residues 284 288 289 292 302 303 NLMGRA
Method: Sort-seq
Item: YFP reporter
Sample: E. coli
Notes: PhoQ-PhoP variant library
With: 10 µM Mg2+
Relative to: high Mg2+ state
Direction: higher = stronger signaling
Quantity: fold induction
PhoP, residues 12 14 15 18 19 LFHKL (Escherichia coli, UniProt P23836): 4.6
PhoP, residues 12 14 15 18 19 QQAYL (Escherichia coli, UniProt P23836): 17.4
PhoP, residues 12 14 15 18 19 GMGLL (Escherichia coli, UniProt P23836): 12.1

Some of these lines once more (study 2):
CTAAGACC: -0.186
ACCCAGAC: -0.187
AAGTACTG: 0.0643
ATCATTAA: 0.337
